{"data": "Experimental data of several laboratories", "note": "A part holds a random share of what one study measured. Changes are numbered by the printed parent chain."}
{"data": "Sample 1", "target": "Sal-like protein 4, full length isoform A (SALL4, Homo sapiens, UniProt Q9UJQ4, residues 1-1053)", "method": "universal PBM", "form": "double-stranded DNA, one strand shown", "matrix": "in vitro", "tested at": "600 nM", "notes": "8-mer, flanks averaged, mean of replicates", "reading": "higher = stronger binding", "chain of UniProt Q9UJQ4 (whole entry, looked up)": "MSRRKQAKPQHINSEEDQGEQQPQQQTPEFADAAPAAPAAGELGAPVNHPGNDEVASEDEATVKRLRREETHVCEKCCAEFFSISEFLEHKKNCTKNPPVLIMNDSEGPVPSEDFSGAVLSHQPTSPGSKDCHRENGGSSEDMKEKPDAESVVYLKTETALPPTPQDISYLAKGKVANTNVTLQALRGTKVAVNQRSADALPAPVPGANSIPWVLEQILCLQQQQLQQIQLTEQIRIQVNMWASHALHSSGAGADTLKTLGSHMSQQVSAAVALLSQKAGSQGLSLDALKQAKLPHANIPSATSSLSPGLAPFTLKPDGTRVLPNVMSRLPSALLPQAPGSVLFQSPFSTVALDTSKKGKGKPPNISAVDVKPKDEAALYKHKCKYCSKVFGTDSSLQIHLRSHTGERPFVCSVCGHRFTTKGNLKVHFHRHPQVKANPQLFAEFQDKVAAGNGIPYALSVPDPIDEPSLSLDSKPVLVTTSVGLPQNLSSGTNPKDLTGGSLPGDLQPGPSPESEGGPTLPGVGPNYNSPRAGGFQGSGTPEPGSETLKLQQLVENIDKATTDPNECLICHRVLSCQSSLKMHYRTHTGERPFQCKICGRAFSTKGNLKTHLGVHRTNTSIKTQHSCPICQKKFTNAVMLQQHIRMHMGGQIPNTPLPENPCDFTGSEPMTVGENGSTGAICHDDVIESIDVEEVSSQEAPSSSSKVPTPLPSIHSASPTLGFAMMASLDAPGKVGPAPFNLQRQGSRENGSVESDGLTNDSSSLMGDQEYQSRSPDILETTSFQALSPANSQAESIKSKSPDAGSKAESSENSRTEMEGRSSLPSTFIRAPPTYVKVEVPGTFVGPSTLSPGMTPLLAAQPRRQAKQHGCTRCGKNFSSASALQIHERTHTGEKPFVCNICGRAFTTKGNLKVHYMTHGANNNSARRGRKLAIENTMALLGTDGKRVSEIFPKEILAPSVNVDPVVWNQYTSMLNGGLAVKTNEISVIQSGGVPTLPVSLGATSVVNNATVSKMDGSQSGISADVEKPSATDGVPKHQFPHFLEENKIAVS"}
{"Sequence": "CGTGGACA", "E-score": -0.23}
{"Sequence": "GTGGTTAA", "E-score": 0.0314}
{"Sequence": "ACTCGGCC", "E-score": -0.191}
{"Sequence": "CTTGTGGA", "E-score": -0.116}
{"Sequence": "CACTACAC", "E-score": 0.00926}
{"Sequence": "CCGTTTAC", "E-score": -0.0342}
{"Sequence": "AGACCGGC", "E-score": -0.327}
{"data": "Sample 2", "target": "Ras GTPase-activating protein-binding protein 1, full length (G3BP1, Homo sapiens, UniProt Q13283)", "method": "RNA Bind-n-Seq", "form": "RNA", "matrix": "in vitro", "tested at": "200 nM", "notes": "whole 134-nt RNA, ends assumed", "with": "150 mM KCl", "relative to": "input library", "reading": "higher = stronger binding", "chain of UniProt Q13283 (whole entry, looked up)": "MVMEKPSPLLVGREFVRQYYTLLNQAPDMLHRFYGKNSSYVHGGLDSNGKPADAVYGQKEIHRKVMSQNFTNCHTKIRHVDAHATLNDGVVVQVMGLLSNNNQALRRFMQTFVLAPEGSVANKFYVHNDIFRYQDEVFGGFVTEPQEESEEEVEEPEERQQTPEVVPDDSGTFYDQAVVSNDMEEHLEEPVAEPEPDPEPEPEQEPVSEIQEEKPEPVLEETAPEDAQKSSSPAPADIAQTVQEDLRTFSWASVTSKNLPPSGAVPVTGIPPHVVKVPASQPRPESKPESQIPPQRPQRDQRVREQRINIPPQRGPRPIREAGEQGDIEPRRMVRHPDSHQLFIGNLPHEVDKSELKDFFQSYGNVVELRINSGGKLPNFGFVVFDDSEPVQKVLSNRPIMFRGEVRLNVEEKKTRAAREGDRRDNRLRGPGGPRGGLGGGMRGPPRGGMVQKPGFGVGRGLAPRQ"}
{"Sequence": "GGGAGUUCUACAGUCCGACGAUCACCAUGCAGGUGGGCUUCUUUGGGAAGUGGGGCAAGGGGGGGAUAGGGAGGGGGGUAACACUUUGGGAACAGGUGGUCCCAGGUCGUUUCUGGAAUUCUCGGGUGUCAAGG", "log2 enrichment": 1.33}
{"Sequence": "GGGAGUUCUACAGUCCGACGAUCUCUCUCUCUUUCCCUCUAGGGUCACAUCUCCCAGGAAGAUCUCACUUCCCCACAGAAGCUCUUGGCCUGGCCUCCUGCAGUGCCACGCUCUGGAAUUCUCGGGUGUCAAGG", "log2 enrichment": 1.02}
{"Sequence": "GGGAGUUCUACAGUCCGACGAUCCACAGACAACACGCACCCACACAGAGACAGAGGGAAGGGGUUGGGAUGGGGACAGGGUGCACAGCAGGGCGGGGUAGGACCCCAGCCCCUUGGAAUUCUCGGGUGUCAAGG", "log2 enrichment": 1.92}
{"Sequence": "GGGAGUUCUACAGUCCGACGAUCUCAAGUCCUGUGCUACACAUCGUAUGUACCGAAUCGGUUUUUUUGGAGGAAAGGAAAGUAUUAUGUUACGCCGUUCGGAUCUGCACUUCCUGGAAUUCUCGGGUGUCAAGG", "log2 enrichment": -0.681}
{"Sequence": "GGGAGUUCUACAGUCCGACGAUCCACAGACAACACGCACCCACACAGACACAGAGGGAAGGGGUUGGGAUGGGGACAGGGUGCACCGCAGGGCGGGGUAGGACCCCAGCCCCUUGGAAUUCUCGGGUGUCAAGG", "log2 enrichment": 1.87}
{"Sequence": "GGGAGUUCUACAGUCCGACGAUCGCAGGAAGUAAAAACAAAUGGAAAUGCUUCGGCUAGUGGCAGGGGUGGGGGUUGCUAAGGAAAGGGUGGGAUGGGAGUGGGUAAAGAGUUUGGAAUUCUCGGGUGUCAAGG", "log2 enrichment": 0.97}
{"data": "Sample 3", "target": "CCNA1, cyclin fold, Cln2 fusion (human)", "method": "yeast growth competition, sequencing", "matrix": "yeast", "notes": "weak parent motif", "relative to": "not given", "reading": "higher = stronger binding", "starting sequence": "CDC6 docking peptide (human); TLKGRRLVFDNQL; partner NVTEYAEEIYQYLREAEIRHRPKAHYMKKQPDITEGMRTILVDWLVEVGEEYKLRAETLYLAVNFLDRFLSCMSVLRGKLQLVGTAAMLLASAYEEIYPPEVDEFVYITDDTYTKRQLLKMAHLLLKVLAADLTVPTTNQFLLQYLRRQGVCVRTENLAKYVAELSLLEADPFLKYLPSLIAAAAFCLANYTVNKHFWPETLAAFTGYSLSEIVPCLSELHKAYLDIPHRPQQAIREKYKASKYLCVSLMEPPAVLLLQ"}
{"Substitution": "G4V", "normalised enrichment score": 0.0681}
{"Substitution": "L2P", "normalised enrichment score": 0.296}
{"Substitution": "T1K", "normalised enrichment score": 0.661}
{"Substitution": "N11K", "normalised enrichment score": 0.157}
{"Substitution": "R5V", "normalised enrichment score": 0.0898}
{"Substitution": "F9E", "normalised enrichment score": 0.652}
{"Substitution": "K3F", "normalised enrichment score": -0.0078}
{"Substitution": "L7R", "normalised enrichment score": 0.499}
{"Substitution": "L7A", "normalised enrichment score": 0.119}
{"data": "Single results of other studies"}
{"Molecule": "PhoQ, residues 284 288 289 292 302 303 NLCILV", "target": "PhoP, residues 12 14 15 18 19 TPWLV (Escherichia coli, UniProt P23836)", "test": "Sort-seq, refers to: YFP reporter", "test system": "E. coli", "setting": "PhoQ-PhoP variant library, with: 10 µM Mg2+", "scale": "relative to: high Mg2+ state, higher = stronger signaling", "measurement": "fold induction", "result": 15.7}
{"note": "For quick reference, copied from above (sample 3):"}
{"Substitution": "G4V", "normalised enrichment score": 0.0681}
{"Substitution": "L2P", "normalised enrichment score": 0.296}
{"Substitution": "T1K", "normalised enrichment score": 0.661}
{"Substitution": "N11K", "normalised enrichment score": 0.157}
